# Measured values gathered from unrelated publications.
# Parts stem from different laboratories: compare values within a part only.

# Block 1
# Target: Histone acetyltransferase KAT6A, winged helix 2, GST fusion (KAT6A, Homo sapiens, UniProt Q92794, residues 85-181)
# Technique: protein binding microarray
# Form: double-stranded DNA, one strand shown
# Medium: in vitro
# Tested at: not given
# Setting: 8-mer, flanks averaged, mean of 2 arrays, mostly near background
# Baseline: not given
# Direction: higher = stronger binding
# Residues (chain): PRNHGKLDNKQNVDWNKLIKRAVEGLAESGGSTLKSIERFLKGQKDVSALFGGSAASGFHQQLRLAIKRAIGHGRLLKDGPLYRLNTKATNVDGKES
Oligonucleotide,E-score
ATCCTGGG,0.0575
GGATCACC,-0.0646
CATCGAGA,-0.0101
CCCATAAG,-0.00968
ACTGGAAA,-0.118
CTTACGTC,-0.168
CCCAATTA,-0.135
CCGAACCA,0.041
AGCACAGG,0.15
ATGGCCCA,0.106
AGGATGTC,-0.0905
ACTGAATC,-0.0487
GATCAAGC,0.0176
CCAGCTAA,-0.0714
ACAGTAGG,-0.0203
TTCACAAA,0.111
ACTGCGAA,0.0699
ACGAGTAT,-0.192
AACGTTCT,-0.234
GCCATCAA,-0.198
AGACTCCA,-0.138

# Block 2
# Target: Hepatocyte nuclear factor 3-alpha (Foxa1, Mus musculus, UniProt P35582, residues 1-468, full length assumed)
# Technique: EMSA with sequencing
# Form: double-stranded DNA, one strand shown
# Medium: in vitro
# Tested at: 10 and 20 nM
# Setting: whole designed probe, mean of two concentrations, ends assumed
# Baseline: negative control set to 0
# Direction: higher = stronger binding
# Target sequence (chain): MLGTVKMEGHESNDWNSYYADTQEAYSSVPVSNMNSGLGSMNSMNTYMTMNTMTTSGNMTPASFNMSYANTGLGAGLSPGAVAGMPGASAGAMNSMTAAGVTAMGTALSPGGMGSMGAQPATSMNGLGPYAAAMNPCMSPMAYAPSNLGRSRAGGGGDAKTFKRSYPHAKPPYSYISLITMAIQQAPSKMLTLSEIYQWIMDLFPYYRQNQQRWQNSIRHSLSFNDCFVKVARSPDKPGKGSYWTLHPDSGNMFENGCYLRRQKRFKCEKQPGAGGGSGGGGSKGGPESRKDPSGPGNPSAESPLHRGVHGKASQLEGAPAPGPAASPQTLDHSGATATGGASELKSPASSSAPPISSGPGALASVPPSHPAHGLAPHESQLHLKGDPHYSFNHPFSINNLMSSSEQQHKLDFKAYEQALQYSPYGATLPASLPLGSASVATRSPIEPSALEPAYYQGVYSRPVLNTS
Oligonucleotide,normalised bound fraction [ratio]
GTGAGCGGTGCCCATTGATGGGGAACACATTCACTCACCATTCACTTACTGACTCACCTAGAGCAACTTTCAGTCCTGCAAGCTCCATTCATGGTAAATGCCCTGTACAGGTGTACCATTGTTTACTTTTTATACCTTTTTTTTTTTTTTTTTTTGAGATGGAGTCTTGCTCTTGTCACCCAGTCTGGAGTGCAATGGTACAATCTTGGCTCACTGCAATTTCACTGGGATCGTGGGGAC,0.469
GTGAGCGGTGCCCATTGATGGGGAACTGATGAGAAACATGATAATTATTTAGTCTGAAAGGATCTTCTCCAATAATTTTTTTTTGTCGTCTCCACCCCCTGATACATTCCTGACTAAATGCAAACAAACCTAAATTGAGGGAAATTCTATGCAATACCTAACCATTATTCATCAAATGTACACAGGAGTACAGTGACACAATCATGGTTCACTGTAACCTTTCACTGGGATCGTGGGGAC,0.331
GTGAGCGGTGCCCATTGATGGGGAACATCTTCCCCCTCTTCCTTGCCCCACCAGCTCACCTTCCCGGGTATATTGGAGATAGGAAATTAATATAAGCCGGCATTCGTTAACCCTCTTCTGGCGCAAACTGCTGTTTACTTTGGATGAATCATGGTCCTTTGGCGACGCCAGGCTCCGGGAGAGCAAAGCACCGTGTCAGGGCCATGATCCGGGGTGGCCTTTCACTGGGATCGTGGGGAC,0.35
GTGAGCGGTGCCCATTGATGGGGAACATCTTCCCCCTCTTCCTTGCCCCACCAGCTCACCTTCCCGGGTTATTTGCAGATAGGAAAATAAATAAAGCCGGCATTCGTTAACGCAGTTCTGGCGCAAACTGCTGTTTGCTCTGCATCTAACATGGTCCTTACGCGAGGCGTGGCTCCGGGAGAGCAAAGCACCGTGTCAGGCGCATGATCCGGGGTGGCCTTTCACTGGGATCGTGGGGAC,0.364
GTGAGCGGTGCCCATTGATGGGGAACAATGGAATAATTCCTTTACAGGATCAGAACACGTAGGAAGCCAAATTAATAATTGAAAGCTTGTTTGTTTAGCAAAGAACCAGAGCATAAGAAAGTAAATAACCTTAAGGGATATTTCAAGGCCATGAGTACAGCCTAACAGAGTGATGGAAGCAGGGACTCTTGCAGTTAAGCCACTGGAATTTGAATTCCATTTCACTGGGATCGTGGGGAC,0.507

# Block 3
# Target: PABPC1L2, full length, GST fusion (mouse, UniProt A0ABA7IW68)
# Technique: RNAcompete
# Form: RNA
# Medium: in vitro
# Tested at: 20 nM
# Setting: 7-mer, probes averaged, single round
# Baseline: mean of 7-mers
# Direction: higher = stronger binding
# Residues (chain): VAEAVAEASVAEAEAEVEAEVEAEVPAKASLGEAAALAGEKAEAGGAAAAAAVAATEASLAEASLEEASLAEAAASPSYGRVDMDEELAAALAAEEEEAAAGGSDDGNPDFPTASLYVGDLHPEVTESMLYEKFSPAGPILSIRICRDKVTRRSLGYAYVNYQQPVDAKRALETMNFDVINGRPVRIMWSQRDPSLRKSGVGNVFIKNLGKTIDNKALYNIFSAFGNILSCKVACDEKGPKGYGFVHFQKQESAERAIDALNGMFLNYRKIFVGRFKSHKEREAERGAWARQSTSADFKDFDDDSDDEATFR
Oligonucleotide,7-mer Z-score
UCCGAUU,-0.311
UGGCGCG,-0.15
CUCUUCU,-0.478
CCUGUAG,-0.289
AACGUUG,-0.0482
AACACAU,0.466
GCACUUA,-0.0373
UUUUGCC,-0.378
UGAUGGC,-0.0663
AACCACA,0.0533
CCUAACC,-0.345
AAUAAGG,0.646
GUACCAA,0.0261
GGUGUUA,-0.05
GAAAUGA,0.427
UCUUAUU,-0.304
CAGCGCA,-0.19
GAUGGCG,-0.0554
ACGUAUA,0.142
UCUGGCU,-0.228
AGCCUGG,-0.132
GCGGCGU,-0.00289
AUCUACA,-0.0899
CUCUUUA,-0.0228
CUUUCCC,-0.367

# Block 4
# Target: Prothrombin, mature alpha-thrombin (F2, Homo sapiens, UniProt P00734)
# Technique: aptamer microarray, sandwich
# Form: DNA with 2'F-ANA
# Medium: in vitro
# Tested at: 200 nM
# Setting: whole 15-mer aptamer, many near background
# Together with: Cy3 exosite-II aptamer, 400 nM
# Direction: higher = stronger binding
# Oligonucleotide: GGTTGGTGTGGTTGG
Modification,mean fluorescence intensity
2'F-ANA at 1 2 5 6 10 12 13 14,46.2 a.u.
2'F-ANA at 1 3 4 5 9 10 15,43.9 a.u.
2'F-ANA at 3 7 10 11 14,462 a.u.
2'F-ANA at 1 4 5 7 8 9 10 11 15,46.4 a.u.
2'F-ANA at 7 8 10 12,279 a.u.
2'F-ANA at 1 4 5 6 7 9 10 11 14,50.1 a.u.
2'F-ANA at 1 2 3 4 7 8 11 14,89.6 a.u.
2'F-ANA at 2 5 8 9 13,63.8 a.u.
2'F-ANA at 1 3 4 8 10 11 12 13,66.6 a.u.
2'F-ANA at 1 2 3 5 7 9 11 13 14,62.9 a.u.
2'F-ANA at 2 3 5 6 7 8 12 13 14 15,59.8 a.u.
2'F-ANA at 2 4 6 7 8 10 11 12 13,85.3 a.u.
2'F-ANA at 2 7 9 10 12 14,213 a.u.
2'F-ANA at 3 6 8 9 12 13 14 15,553 a.u.
2'F-ANA at 1 6 7 8 15,231 a.u.
2'F-ANA at 1 3 4 5 8 9 11 14 15,58.3 a.u.
2'F-ANA at 3 5 7 9 10 15,55.6 a.u.
2'F-ANA at 1 2 3 5 6 7 8 12 13,110 a.u.
2'F-ANA at 2 4 6 7 9 15,261 a.u.
2'F-ANA at 1 4 5 7 11 13,135 a.u.
2'F-ANA at 1 2 4 5 8 9 11 15,51.5 a.u.
2'F-ANA at 2 3 4 5 6 7 8 9 11 12 14,77.9 a.u.

# Block 5
# Target: RING finger protein unkempt homolog, zinc fingers 1-6, SBP tag (UNK, Homo sapiens, UniProt Q9C0B0, residues 30-357)
# Sequence of UniProt Q9C0B0 (30-357, looked up): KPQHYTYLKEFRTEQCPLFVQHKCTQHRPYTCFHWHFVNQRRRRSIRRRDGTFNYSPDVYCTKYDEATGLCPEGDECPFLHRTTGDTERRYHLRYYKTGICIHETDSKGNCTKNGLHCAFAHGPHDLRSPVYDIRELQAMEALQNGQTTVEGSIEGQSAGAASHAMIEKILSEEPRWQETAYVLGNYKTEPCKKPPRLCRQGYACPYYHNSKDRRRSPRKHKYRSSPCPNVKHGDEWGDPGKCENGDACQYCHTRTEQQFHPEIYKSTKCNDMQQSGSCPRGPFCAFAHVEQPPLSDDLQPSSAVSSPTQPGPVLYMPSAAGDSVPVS
# Technique: RNA Bind-n-Seq
# Form: RNA
# Medium: in vitro
# Tested at: 100 nM
# Setting: RNA with constant flanks, vertebrate orthologous sites, ends assumed
# Baseline: input RNA pool
# Direction: higher = stronger binding
Oligonucleotide,bound/input enrichment
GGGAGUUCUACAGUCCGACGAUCCAUGUCCUUGCUACUGUGAUACUUAAAACAUGCACAGUACUCAUUUUUCCCAAAUGAUUCUAGUAAUUGCCUAGAAAUAUCUUUCUCUUACCUGUUAUUUAUCAAUUGUUCCCAGUAUUUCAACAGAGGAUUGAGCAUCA,1.26 ratio
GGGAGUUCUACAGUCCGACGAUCGCUGUCUACCUGCCAGCCUUCUUCUAGGGGCGGCUUCAGAUCUAUCAGAUGUGUUGUAUCUAGGUGAGUUCAAUAUUUUUUUAUUAGCCUGUAAAUAAAGAUGACAUCGCCUACAUUAAACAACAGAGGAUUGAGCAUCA,0.364 ratio
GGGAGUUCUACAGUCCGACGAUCUUGGGAACAGCUCUCCAAAUAGGAAUAGUAGUAAAAAAAAUAAGCAAAAUGAUAUUUGUAUAGAAAAAACAGAAGUUAAAUCAUGUAAAGUAAAUGCUGCCAACCUUCCAGGUCCUAAAGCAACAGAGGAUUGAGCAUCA,1.8 ratio
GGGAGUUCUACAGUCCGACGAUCCAAUCUUAUAUUAAACUGGUAUUUUCAAACAAUAGGAAACUUUUUUUUUUUUUUACAGUUUAGUGUAUCUGGUUUCUACAUGGAAGACUAAACUCAUGCUUAUUGCUAAAUGUGGUCUUUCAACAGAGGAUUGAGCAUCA,0.409 ratio
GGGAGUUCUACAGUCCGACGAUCGUGUUUUGUACAGGGCAUCACCCUCUGUACGAGUUUGUGGUUAUAAAAUAAUUAGUAAAACAGCUUACAUUUGUAUUUAUUUUCUAGUCCACACUUCUGUACCCGUUUUUUUCUCCCUUACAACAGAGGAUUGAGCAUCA,0.503 ratio
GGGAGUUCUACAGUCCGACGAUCCAUAAAAUAUUGGAUGCAGUGUAUAAAUUAUCCAAGGCAGUGACUUCAGCUUUAUAUAUAUUGACAGUUUUAAAGUCAUCUGCAUUUAUUUAAACUCCUAUAUUGGAUCGUUUGAUCUGUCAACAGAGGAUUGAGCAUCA,0.382 ratio
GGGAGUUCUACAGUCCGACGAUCGCAUGUCCAGUCACUGUGGUAUUCAAAAUACCCACAGUUCUCACUUGUUCCAAAUGAUCCUAAUAAUUGCCUAGAAAUGUCUUUCUCUUACCUGUUAUUUAUCAAUUUUUCCCAGUAUUUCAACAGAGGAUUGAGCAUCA,1.19 ratio
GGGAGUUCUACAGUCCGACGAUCUGCUGUUAAUGCACUGUAUACCAGGCAUCGUCUGAACUUAGUGUAAUCUAGGAGAUUUUAUAGUUUUAUUUUAAUGAAGUAUGGUUGAAGCAAAGCUGUUAGGAAUAUGUAGUCUUUUACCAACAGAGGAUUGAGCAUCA,2.82 ratio

# Repeated from above (block 3):
Oligonucleotide,7-mer Z-score
UGGCGCG,-0.15
GCACUUA,-0.0373
CCUAACC,-0.345
CUUUCCC,-0.367
CAGCGCA,-0.19
AGCCUGG,-0.132
GAAAUGA,0.427
GCGGCGU,-0.00289
AUCUACA,-0.0899
UUUUGCC,-0.378
GGUGUUA,-0.05
